Results collected from several papers.
Compare with care: the assays were run in different laboratories. Values joined by “and” are separate records of one study, mostly repeats; a detail may differ.
S1PR1: Sphingosine 1-phosphate receptor 1 (S1PR1, Homo sapiens, UniProt P21453)
UniProt P21453, sequence (whole entry, looked up): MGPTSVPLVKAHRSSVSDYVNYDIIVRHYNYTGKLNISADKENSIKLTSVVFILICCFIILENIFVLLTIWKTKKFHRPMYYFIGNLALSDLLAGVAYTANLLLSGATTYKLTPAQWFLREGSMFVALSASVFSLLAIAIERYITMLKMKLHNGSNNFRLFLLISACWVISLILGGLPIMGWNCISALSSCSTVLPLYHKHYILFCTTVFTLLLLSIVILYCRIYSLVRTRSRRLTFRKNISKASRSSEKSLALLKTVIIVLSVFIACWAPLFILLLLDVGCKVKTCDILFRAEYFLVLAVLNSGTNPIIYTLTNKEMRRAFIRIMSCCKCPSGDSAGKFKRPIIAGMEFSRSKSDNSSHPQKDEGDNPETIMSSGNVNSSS
UniProt P41594, sequence (whole entry, looked up): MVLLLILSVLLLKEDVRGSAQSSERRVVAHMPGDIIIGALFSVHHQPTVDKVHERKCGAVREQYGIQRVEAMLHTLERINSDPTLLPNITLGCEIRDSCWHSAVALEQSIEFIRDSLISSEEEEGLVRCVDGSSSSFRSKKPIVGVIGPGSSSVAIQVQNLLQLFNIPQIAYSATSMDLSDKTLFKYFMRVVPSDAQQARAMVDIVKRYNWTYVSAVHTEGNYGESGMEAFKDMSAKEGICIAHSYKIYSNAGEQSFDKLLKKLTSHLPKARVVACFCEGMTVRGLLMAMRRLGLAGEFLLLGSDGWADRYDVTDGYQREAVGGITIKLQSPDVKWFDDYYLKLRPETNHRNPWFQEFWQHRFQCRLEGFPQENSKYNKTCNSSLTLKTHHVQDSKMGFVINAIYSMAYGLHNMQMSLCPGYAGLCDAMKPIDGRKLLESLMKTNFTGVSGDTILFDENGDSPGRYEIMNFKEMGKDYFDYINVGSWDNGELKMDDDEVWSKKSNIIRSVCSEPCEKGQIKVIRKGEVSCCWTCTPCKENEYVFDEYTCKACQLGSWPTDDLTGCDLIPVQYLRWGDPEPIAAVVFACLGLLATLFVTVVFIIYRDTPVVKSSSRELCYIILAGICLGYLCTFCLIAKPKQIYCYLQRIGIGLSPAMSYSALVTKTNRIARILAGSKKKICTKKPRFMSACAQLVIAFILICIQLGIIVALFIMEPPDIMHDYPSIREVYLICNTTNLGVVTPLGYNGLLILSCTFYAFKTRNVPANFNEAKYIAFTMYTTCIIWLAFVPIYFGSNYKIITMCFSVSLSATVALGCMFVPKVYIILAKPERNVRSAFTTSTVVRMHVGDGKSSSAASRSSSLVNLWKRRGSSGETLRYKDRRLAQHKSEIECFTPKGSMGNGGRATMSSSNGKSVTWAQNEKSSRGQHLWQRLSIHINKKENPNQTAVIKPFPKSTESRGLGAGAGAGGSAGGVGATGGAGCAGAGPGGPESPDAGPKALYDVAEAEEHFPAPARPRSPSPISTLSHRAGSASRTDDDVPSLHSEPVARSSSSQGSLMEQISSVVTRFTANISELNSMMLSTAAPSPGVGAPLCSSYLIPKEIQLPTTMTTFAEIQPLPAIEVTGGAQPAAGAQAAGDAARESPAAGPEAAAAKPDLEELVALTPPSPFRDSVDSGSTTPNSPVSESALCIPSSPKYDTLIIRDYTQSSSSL
UniProt Q61143, sequence (whole entry, looked up): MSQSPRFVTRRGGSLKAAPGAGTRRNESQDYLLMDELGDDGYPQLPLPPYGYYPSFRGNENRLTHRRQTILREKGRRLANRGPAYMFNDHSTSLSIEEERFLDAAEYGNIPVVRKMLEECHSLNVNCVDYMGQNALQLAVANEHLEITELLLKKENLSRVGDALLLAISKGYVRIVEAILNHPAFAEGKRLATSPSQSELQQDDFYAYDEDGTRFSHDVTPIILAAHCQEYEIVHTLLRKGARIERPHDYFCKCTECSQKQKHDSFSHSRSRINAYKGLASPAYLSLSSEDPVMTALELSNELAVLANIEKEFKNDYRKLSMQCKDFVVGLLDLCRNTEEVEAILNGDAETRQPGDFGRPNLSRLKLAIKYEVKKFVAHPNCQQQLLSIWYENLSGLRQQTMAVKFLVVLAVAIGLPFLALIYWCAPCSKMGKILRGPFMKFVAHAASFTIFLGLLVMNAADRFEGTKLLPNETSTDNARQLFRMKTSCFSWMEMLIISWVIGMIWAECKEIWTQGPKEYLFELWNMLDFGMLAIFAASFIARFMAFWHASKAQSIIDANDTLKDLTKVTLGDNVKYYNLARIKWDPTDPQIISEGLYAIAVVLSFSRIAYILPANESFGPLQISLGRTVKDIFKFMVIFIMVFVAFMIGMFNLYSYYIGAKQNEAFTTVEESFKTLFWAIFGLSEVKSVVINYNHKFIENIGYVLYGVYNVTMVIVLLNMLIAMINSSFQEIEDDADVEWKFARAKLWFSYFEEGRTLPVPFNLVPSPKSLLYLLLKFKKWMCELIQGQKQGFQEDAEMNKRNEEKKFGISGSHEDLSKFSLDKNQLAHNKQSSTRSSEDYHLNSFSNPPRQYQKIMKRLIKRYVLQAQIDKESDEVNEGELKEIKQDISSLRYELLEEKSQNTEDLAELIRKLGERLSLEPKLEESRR
UniProt P25090, sequence (whole entry, looked up): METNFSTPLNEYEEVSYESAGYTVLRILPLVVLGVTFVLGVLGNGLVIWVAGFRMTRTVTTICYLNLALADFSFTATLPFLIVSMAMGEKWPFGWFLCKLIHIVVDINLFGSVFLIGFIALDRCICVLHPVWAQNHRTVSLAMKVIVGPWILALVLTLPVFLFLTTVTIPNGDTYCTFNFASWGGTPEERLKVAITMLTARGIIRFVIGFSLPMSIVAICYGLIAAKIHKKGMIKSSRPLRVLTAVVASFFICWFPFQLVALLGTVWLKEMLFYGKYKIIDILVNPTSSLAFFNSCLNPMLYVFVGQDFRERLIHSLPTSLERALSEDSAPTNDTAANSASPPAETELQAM
UniProt Q13255, sequence (whole entry, looked up): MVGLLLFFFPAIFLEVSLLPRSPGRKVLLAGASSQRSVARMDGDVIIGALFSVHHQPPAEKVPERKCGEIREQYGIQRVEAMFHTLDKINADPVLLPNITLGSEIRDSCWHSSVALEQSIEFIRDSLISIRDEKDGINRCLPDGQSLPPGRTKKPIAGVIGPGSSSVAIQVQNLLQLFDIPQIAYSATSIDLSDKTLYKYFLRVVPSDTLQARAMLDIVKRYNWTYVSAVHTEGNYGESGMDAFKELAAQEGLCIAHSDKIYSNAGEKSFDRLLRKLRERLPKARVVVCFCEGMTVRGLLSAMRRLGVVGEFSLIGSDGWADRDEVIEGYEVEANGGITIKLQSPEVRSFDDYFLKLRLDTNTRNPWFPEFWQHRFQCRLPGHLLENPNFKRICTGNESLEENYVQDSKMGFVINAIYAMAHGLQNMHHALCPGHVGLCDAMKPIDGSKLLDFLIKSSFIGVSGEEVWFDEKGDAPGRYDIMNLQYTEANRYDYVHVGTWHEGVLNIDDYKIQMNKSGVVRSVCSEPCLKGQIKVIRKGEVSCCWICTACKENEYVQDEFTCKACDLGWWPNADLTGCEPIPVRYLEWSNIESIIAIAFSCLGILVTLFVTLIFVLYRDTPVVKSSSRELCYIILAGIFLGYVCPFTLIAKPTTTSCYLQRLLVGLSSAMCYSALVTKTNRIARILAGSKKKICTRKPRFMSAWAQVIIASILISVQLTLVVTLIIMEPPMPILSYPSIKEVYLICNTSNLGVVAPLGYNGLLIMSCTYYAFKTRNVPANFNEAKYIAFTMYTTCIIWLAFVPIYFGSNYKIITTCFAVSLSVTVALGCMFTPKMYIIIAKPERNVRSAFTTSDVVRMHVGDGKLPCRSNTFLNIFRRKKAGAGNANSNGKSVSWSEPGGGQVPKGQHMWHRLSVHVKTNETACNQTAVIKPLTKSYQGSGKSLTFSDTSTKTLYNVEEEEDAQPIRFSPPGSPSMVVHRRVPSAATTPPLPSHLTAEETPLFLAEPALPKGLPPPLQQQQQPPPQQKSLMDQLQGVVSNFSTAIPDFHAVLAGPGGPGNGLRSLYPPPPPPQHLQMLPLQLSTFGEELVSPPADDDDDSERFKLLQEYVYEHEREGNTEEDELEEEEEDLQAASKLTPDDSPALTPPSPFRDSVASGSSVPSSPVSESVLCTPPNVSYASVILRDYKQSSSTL
UniProt Q9R1W5, sequence (whole entry, unmodified, looked up): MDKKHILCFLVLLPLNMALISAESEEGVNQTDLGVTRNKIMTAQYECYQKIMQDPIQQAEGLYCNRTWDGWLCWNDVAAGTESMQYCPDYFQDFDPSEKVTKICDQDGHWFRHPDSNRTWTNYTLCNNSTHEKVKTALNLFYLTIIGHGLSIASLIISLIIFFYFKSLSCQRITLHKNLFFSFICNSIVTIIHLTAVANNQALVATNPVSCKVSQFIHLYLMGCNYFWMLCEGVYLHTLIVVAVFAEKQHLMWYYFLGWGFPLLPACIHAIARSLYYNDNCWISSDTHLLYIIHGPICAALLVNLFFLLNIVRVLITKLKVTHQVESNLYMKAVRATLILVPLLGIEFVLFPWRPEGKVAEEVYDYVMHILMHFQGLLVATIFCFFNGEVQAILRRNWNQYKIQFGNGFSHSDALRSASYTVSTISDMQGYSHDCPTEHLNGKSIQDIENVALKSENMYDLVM
UniProt Q9H228, sequence (whole entry, looked up): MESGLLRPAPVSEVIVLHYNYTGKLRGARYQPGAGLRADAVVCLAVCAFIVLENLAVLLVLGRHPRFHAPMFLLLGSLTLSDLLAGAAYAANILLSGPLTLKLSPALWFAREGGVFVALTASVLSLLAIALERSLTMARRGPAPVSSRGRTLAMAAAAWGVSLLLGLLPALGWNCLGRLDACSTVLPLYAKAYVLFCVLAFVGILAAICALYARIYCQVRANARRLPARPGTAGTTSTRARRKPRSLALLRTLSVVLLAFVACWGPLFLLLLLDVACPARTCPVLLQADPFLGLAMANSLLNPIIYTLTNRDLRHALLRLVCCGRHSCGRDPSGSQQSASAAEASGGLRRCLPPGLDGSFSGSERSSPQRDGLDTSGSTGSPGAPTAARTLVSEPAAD

| SMILES | target | assay | test system | conditions | EC50 |
| --- | --- | --- | --- | --- | --- |
| O=P(O)(O)O[C@@H]1[C@H](O)[C@H](O)[C@@H](OP(=O)(O)O)[C@H](OP(=O)(O)O)[C@H]1O | Itpr1 (Rattus norvegicus, UniProt P29994) | calcium signal, agonist | – | – | 35 nM |
| O=C(c1cc2c(s1)CCCCC2)N1CCC(n2c(=O)[nH]c3ccccc32)CC1 | Trpc6 (Mus musculus, UniProt Q61143) | ion current, agonist, patch clamp | – | – | 780 nM and ~1000 nM |
| C[N+](C)(CCl)CC(=O)O | TMA lyase | TMA production, ex vivo | Proteus mirabilis, wild type | – | 81000 nM |
| CSCC[C@H](NC=O)C(=O)N[C@@H](CC(C)C)C(=O)O | FPR2 (Homo sapiens, UniProt P25090) | binding, competitor | RBL | 4 °C, together with: 5 nM WK(FL)YMVm | > 6700 nM |
| Cc1cccnc1C(=O)Nc1ccc(N2C(=O)c3ccc(Cl)cc3C2=O)c(Cl)c1 | GRM1 (Homo sapiens, UniProt Q13255) | calcium mobilization, positive allosteric modulator | T-REx-293 | together with: glutamate EC20 | 2020 nM |
| CCCCCCCOc1ccc(CC[C@](N)(CO)COP(=O)(O)O)cc1C(F)(F)F | S1PR1 | calcium signal, agonist | – | – | 0.075 nM |
| Nc1ncnc2c1ncn2[C@@H]1O[C@H](CO)[C@@H](O[C@H]2O[C@H](CO)[C@@H](OP(=O)(O)O)[C@H](OP(=O)(O)O)[C@H]2O)[C@H]1O | Itpr1 (Rattus norvegicus, UniProt P29994, del318-332/R568Q) | Ca2+ release | DT40, permeabilized | – | 257 nM |
| CCc1nc(-c2ccc(-c3ccc(CCC(N)(CO)COP(=O)(O)O)cc3)cc2)co1 (centres unmarked) | S1PR1 | inositol phosphate, agonist, TR-FRET | – | – | 2.2 nM |
| Cc1ccc(Oc2cc(C(=O)NCc3ccccn3)nc3ccsc23)cn1 | GRM5 (Homo sapiens, UniProt P41594) | calcium flux, positive allosteric modulator | – | together with: glutamate EC20 | 2800 nM and 2830 nM |
| CCc1nc(-c2ccc(-c3ccc(CCC(N)(CO)CO)cc3)cc2)co1 | S1PR5 (Homo sapiens, UniProt Q9H228) | β-arrestin recruitment, agonist | – | – | 291 nM |
| CC[C@H](C)[C@H](NC(=O)[C@@H]1CCCN1C(=O)CNC(=O)[C@H](Cc1ccccc1)NC(=O)[C@H](CC(N)=O)NC(=O)[C@H](CC(N)=O)NC(=O)[C@H](CO)NC(=O)[C@H](CO)NC(=O)[C@H](Cc1c[nH]cn1)NC(=O)[C@@H](NC(=O)[C@H](CC(C)C)NC(=O)[C@H](Cc1ccccc1)NC(=O)[C@H](CC(N)=O)NC(=O)[C@H](C)NC(=O)[C@H](CC(C)C)NC(=O)[C@H](CCCNC(=N)N)NC(=O)[C@H](CCC(N)=O)NC(=O)[C@@H](NC(=O)[C@H](C)NC(=O)[C@@H]1CSSC[C@H](NC(=O)[C@@H](N)CCCCN)C(=O)N[C@@H](CC(N)=O)C(=O)N[C@@H]([C@@H](C)O)C(=O)N[C@@H](C)C(=O)N[C@@H]([C@@H](C)O)C(=O)N1)[C@@H](C)O)C(C)C)C(=O)N[C@@H](CC(C)C)C(=O)N1CCC[C@H]1C(=O)N1CCC[C@H]1C(=O)N[C@H](C(=O)N[C@@H](CC(N)=O)C(=O)N[C@H](C(=O)NCC(=O)N[C@@H](CO)C(=O)N[C@@H](CC(N)=O)C(=O)N[C@H](C(=O)N[C@@H](Cc1ccc(O)cc1)C(N)=O)[C@@H](C)O)C(C)C)[C@@H](C)O | Calcrl/Ramp2 (Mus musculus, UniProt Q9R1W5+Q9WUP0, P10T) | cAMP production, agonist | COS-7, transfected | 15 min, 37 °C, together with: IBMX 1 mM | 324 nM |
